Results pooled from the literature.
Every numbered part comes from another study and shows a few of its results, in no order. Several values in a cell are separate wells, animals, samples, runs or records.
UniProt Q08345, sequence (whole entry, looked up): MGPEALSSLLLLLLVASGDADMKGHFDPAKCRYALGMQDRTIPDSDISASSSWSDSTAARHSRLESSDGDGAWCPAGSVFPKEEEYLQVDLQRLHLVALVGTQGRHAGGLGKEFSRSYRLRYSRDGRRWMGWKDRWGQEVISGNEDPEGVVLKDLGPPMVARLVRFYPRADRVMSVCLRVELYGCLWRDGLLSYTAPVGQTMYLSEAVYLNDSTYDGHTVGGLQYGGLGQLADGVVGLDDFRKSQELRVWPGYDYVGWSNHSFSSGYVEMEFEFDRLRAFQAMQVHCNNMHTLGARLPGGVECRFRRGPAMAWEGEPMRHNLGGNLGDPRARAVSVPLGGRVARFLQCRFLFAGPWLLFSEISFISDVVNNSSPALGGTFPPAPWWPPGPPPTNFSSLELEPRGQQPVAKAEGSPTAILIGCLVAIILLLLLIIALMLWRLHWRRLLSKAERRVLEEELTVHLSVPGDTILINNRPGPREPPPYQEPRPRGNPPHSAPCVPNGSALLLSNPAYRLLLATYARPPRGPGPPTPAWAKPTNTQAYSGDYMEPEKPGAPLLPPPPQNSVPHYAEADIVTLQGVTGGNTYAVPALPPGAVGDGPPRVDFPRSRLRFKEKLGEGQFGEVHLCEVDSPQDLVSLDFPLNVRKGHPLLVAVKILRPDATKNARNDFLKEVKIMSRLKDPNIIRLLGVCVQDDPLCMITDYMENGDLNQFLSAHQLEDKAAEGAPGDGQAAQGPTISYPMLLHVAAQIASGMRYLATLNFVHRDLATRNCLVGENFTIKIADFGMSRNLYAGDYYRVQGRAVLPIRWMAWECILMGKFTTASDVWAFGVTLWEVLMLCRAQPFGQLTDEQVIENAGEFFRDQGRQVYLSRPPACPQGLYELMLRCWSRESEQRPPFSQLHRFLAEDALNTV
UniProt P35368, sequence (whole entry, looked up): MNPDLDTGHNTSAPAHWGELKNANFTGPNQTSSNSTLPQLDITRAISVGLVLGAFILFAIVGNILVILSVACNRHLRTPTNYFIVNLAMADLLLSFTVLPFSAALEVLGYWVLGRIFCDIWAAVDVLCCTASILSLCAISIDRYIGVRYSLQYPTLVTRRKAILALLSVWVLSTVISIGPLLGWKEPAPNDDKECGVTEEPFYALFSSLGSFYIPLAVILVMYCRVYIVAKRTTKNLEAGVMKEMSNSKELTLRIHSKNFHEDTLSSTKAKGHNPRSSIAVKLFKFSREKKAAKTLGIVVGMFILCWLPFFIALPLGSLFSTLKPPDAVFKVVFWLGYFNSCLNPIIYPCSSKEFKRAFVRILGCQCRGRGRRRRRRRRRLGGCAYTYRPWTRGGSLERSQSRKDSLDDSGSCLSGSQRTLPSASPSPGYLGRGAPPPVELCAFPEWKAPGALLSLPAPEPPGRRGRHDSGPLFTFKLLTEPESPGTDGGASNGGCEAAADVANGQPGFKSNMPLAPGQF
UniProt Q5BJF2, sequence (whole entry, looked up): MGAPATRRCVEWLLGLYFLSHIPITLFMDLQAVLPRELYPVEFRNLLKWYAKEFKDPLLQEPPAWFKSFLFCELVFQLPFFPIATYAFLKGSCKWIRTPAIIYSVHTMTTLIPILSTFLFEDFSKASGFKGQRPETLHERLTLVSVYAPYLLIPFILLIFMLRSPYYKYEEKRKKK
UniProt P07550, sequence (whole entry, looked up): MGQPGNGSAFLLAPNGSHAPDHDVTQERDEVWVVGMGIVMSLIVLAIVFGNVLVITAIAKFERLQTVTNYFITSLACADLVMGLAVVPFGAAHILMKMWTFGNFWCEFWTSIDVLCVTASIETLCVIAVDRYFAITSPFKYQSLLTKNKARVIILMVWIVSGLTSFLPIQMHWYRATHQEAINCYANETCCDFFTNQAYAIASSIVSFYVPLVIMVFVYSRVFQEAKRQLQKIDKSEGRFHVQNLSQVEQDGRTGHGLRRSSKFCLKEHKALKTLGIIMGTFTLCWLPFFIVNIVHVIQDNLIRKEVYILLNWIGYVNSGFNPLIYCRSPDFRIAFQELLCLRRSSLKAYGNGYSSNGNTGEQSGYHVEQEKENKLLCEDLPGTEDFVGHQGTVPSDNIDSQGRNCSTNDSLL
UniProt Q9H3N8, sequence (whole entry, looked up): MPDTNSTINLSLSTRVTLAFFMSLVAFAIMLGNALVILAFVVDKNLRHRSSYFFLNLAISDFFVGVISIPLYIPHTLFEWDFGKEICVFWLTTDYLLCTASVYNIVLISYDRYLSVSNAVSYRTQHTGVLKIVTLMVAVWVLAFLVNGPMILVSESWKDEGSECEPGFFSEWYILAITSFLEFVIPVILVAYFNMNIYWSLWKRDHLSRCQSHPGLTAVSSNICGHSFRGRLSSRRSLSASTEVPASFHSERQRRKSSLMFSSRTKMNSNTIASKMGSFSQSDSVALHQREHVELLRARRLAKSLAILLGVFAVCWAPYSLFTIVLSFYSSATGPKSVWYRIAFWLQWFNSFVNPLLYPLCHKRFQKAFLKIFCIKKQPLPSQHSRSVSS
UniProt Q9P289, sequence (whole entry, looked up): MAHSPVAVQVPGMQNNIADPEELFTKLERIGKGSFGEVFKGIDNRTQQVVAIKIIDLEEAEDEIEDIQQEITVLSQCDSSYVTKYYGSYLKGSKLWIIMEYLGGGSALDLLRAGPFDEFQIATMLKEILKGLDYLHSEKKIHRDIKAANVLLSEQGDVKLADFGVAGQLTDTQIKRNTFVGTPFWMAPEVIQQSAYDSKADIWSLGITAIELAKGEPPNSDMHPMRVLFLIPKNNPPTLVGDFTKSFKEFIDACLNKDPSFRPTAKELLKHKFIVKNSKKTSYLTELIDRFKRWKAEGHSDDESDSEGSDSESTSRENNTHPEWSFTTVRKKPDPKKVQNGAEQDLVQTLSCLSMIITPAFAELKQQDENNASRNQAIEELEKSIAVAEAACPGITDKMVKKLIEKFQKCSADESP
UniProt P18825, sequence (whole entry, looked up): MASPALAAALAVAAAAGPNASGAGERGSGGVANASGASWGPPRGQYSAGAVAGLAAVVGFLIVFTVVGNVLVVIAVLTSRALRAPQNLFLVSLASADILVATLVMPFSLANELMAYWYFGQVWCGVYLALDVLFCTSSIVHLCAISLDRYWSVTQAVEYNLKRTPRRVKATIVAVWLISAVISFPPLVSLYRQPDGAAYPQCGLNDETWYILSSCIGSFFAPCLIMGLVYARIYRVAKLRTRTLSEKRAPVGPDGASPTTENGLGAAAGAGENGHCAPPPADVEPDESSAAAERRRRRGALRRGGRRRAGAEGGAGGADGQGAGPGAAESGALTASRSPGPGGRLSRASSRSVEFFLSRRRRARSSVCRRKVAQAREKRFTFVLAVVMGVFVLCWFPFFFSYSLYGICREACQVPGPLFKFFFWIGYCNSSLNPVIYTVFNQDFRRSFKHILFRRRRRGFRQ
UniProt O14965, sequence (whole entry, looked up): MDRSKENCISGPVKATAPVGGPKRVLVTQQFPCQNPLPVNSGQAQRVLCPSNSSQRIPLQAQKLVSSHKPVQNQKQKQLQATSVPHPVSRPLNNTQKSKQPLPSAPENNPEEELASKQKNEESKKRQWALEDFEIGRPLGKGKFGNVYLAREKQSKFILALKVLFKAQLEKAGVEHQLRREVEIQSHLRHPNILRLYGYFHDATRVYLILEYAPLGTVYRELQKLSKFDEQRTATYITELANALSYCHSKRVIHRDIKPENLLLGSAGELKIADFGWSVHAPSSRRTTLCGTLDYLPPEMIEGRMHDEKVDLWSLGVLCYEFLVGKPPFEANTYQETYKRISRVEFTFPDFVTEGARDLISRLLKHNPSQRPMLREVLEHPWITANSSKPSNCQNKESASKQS
UniProt P50406, sequence (whole entry, looked up): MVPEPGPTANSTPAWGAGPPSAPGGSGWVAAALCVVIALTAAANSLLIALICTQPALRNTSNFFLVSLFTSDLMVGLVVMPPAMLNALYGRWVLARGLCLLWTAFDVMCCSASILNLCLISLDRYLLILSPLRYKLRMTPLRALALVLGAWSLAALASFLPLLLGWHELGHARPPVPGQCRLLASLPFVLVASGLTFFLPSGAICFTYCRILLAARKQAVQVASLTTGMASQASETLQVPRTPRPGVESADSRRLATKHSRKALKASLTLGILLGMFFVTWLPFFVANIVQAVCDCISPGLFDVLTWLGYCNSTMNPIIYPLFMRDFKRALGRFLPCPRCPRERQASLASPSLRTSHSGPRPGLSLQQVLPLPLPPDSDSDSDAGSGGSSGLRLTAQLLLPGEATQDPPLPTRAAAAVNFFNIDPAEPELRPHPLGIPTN
UniProt Q16539, sequence (whole entry, looked up): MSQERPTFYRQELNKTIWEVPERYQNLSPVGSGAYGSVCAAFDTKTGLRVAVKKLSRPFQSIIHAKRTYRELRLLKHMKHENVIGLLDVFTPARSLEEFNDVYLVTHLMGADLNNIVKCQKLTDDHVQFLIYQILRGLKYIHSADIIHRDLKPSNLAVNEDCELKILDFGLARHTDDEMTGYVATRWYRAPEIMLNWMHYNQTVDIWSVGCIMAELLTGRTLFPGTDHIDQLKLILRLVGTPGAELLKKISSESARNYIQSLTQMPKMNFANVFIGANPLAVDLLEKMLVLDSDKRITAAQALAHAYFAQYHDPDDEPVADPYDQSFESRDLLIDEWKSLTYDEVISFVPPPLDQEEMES

Set 1
Species: human
Sample: microsomes or S9
Tested at: 2 µM
Time: 0.5 h
SMILES	remaining compound [%]
CC(C)(C)OC(=O)N[C@@H](CC(=O)N1Cc2ccccc2CN1C(=O)OCc1ccccc1)Cc1cc(F)c(F)cc1F	< 1
CCn1cnc2c(Nc3ccc(OC)c(Cl)c3)nc(Cl)nc21	44
COC(C)(C)c1noc(-c2ccc(=O)n(C)n2)n1	65.6
c1ccc(OCC2=NN=C(COc3ccccc3)NN2)cc1	97.7
c1ccc(CN2CCc3nc(N4CCCC4)nc(N4CCn5cnnc5C4)c3C2)cc1	23
Cc1ccc(-c2ccc(C(CN3CCCC3)N(C)C(=O)CN3C(=O)COc4cc(Cl)c(Cl)cc43)cc2)cn1 (stereo not drawn)	60.6
CCn1nc(C)c(S(=O)(=O)N(C)Cc2nn(C)c(Cl)c2Cl)c1C	63.4
Cn1c2nc3ccccc3nc2c2c(=O)n(Cc3ccccc3)cnc21	31
CCOc1ccccc1CCCNS(=O)(=O)c1ccc(C)cc1	< 1
CN(CCc1ccccc1)c1ncc(-c2ncc[nH]2)c(-c2ccc(F)cc2)n1	0.104
Cc1nc2nc(CC(=O)N3CCC(C)CC3)nn2c(C)c1Cl	95
c1ccc(-n2nnnc2Oc2ccc(-c3nc4ccccc4s3)cc2)cc1	> 100
Fc1cc2nc(-c3cnc(-c4cnccn4)s3)[nH]c2cc1F	32.8
COc1cc(=O)n(C)cc1C(=O)NCCCNC(=O)OC(C)(C)C	> 99
O=c1ccc(-c2ccc(S(=O)(=O)NCCCN3CCN(c4ccccc4)CC3)s2)n[nH]1	45.8

Set 2
Target: Calcium/calmodulin-dependent protein kinase type II subunit alpha (CAMK2A, Homo sapiens, UniProt Q9UQM7)
UniProt Q9UQM7, sequence (whole entry, looked up): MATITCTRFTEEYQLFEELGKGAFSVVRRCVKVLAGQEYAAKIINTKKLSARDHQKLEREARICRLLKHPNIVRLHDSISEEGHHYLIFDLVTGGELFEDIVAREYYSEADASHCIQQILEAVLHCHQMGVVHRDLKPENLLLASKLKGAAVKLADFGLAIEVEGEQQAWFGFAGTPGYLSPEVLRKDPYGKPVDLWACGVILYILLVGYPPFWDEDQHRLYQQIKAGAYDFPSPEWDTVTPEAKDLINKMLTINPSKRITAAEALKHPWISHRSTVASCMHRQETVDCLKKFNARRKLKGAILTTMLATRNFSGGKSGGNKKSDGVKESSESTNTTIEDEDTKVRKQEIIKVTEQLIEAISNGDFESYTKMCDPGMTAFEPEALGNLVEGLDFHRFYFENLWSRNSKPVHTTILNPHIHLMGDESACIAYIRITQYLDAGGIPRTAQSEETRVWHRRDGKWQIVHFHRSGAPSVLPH
Effect on: enzyme activity
Action: inhibitor
Tested at: 10 µM
SMILES	inhibition
CC(C)=CCC1=C(O)[C@](O)(CC=C(C)C)C(=O)C(C(=O)CC(C)C)=C1O	-55%
C[C@H]1O[C@@H](n2cc(F)c(=O)[nH]c2=O)[C@H](O)[C@@H]1O	1%
CC(=O)c1ccc(C)cc1O	-8%
OC[C@H]1O[C@@H](O[C@@H]2[C@@H](CO)OC(O)(CO)[C@H]2O)[C@H](O)[C@@H](O)[C@H]1O (mixture of isomers)	-12%
C[N+](C)(C)CCOP(=O)(O)OP(=O)([O-])OC[C@H]1O[C@@H](n2ccc(N)nc2=O)[C@H](O)[C@@H]1O	12%
COc1cc(O)cc(CCc2ccc(O)c(OC)c2)c1	-24%
COc1cc2oc(-c3ccccc3)cc(=O)c2c(OC)c1OC	-1%
Oc1ccc2c(c1)OC[C@H]1c3cc4c(cc3O[C@@H]21)OCO4	-0.01% and 0.57%
O=C(/C=C/c1ccccc1)c1ccccc1O	-5%
COc1cc(N)c(Cl)cc1C(=O)N[C@@H]1CCN(CCCOc2ccc(F)cc2)C[C@@H]1OC (racemic)	1%
O=C(O)CCn1c2c(c3ccccc31)C[C@H](NS(=O)(=O)c1ccc(F)cc1)CC2	-5%
O=C1NCCN1CCN1CCC(c2cn(-c3ccc(F)cc3)c3ccc(Cl)cc23)CC1	-2%

Set 3
SMILES: N#CN1CC[C@H](C(=O)Nc2nc3c(s2)CN(C(=O)CN=[N+]=[N-])CC3)C1
Effect on: ligand displacement
Tested at: 10 µM
target	inhibition
Muscarinic acetylcholine receptor M5 (CHRM5, Homo sapiens, UniProt P08912)	-13.6%
Sigma intracellular receptor 2 (TMEM97, Homo sapiens, UniProt Q5BJF2)	-1.19%
Alpha-2C adrenergic receptor (ADRA2C, Homo sapiens, UniProt P18825)	14.7%
5-hydroxytryptamine receptor 7 (HTR7, Homo sapiens, UniProt P34969)	-0.16%
D(4) dopamine receptor (DRD4, Homo sapiens, UniProt P21917)	4.26%
Sigma non-opioid intracellular receptor 1 (SIGMAR1, Homo sapiens, UniProt Q99720)	69%
Histamine H4 receptor (HRH4, Homo sapiens, UniProt Q9H3N8)	5.77%
Histamine H1 receptor (HRH1, Homo sapiens, UniProt P35367)	7.45%
Alpha-2A adrenergic receptor (ADRA2A, Homo sapiens, UniProt P08913)	-13.6%
Muscarinic acetylcholine receptor M2 (CHRM2, Homo sapiens, UniProt P08172)	-0.45%
Alpha-1B adrenergic receptor (ADRA1B, Homo sapiens, UniProt P35368)	-12%
5-hydroxytryptamine receptor 6 (HTR6, Homo sapiens, UniProt P50406)	9.94%
Beta-2 adrenergic receptor (ADRB2, Homo sapiens, UniProt P07550)	-0.7%
Alpha-1D adrenergic receptor (ADRA1D, Homo sapiens, UniProt P25100)	12.2%

Set 4
Structure (SMILES): Cc1sc(C(=O)NC2COC2)cc1-n1cc(NC(=O)Nc2c(F)cccc2Cl)cn1
Tested at: 10 µM
target	effect on	technique	baseline	remaining activity
Epithelial discoidin domain-containing receptor 1 (DDR1, Homo sapiens, UniProt Q08345)	enzyme activity		untreated control	83.4%
Mitogen-activated protein kinase kinase kinase 6 (MAP3K6, Homo sapiens, UniProt O95382)	enzyme activity		untreated control	77.7%
Serine/threonine-protein kinase 38 (STK38, Homo sapiens, UniProt Q15208)	enzyme activity		untreated control	88.3%
Ribosomal protein S6 kinase beta-2 (RPS6KB2, Homo sapiens, UniProt Q9UBS0)	enzyme activity		untreated control	97.4%
Mitogen-activated protein kinase 14 (MAPK14, Homo sapiens, UniProt Q16539)	enzyme activity		untreated control	86%
Rho-associated protein kinase 2 (ROCK2, Homo sapiens, UniProt O75116)	enzyme activity		untreated control	91.7%
Aurora kinase B (AURKB, Homo sapiens, UniProt Q96GD4)	enzyme activity		untreated control	94.1%
Serine/threonine-protein kinase Nek3 (NEK3, Homo sapiens, UniProt P51956)	enzyme activity		untreated control	86.5%
Serine/threonine-protein kinase 26 (STK26, Homo sapiens, UniProt Q9P289)	enzyme activity		untreated control	71.3%
Cyclin-dependent kinase 16, with cyclin Y (CDK16, Homo sapiens, UniProt Q00536)	kinase activity	kinase panel profiling		102%
Aurora kinase A (AURKA, Homo sapiens, UniProt O14965)	enzyme activity		untreated control	85.4%
Serine/threonine-protein kinase PAK 6 (PAK6, Homo sapiens, UniProt Q9NQU5)	enzyme activity		untreated control	99.1%
Fibroblast growth factor receptor 4 (FGFR4, Homo sapiens, UniProt P22455)	enzyme activity		untreated control	94.7%
